Published values of several laboratories.
Every numbered part comes from another study and shows a few of its results, in no order. Changes are numbered by the printed parent chain.

Series 1
Target: Sal-like protein 4, full length isoform B (SALL4, Homo sapiens, UniProt Q9UJQ4-2, residues 1-616)
Technique: universal PBM
Molecule type: double-stranded DNA, one strand shown
Sample: in vitro
Concentration: not given
Notes: 8-mer, flanks averaged, mean of replicates
Reading: higher = stronger binding
Residues (chain): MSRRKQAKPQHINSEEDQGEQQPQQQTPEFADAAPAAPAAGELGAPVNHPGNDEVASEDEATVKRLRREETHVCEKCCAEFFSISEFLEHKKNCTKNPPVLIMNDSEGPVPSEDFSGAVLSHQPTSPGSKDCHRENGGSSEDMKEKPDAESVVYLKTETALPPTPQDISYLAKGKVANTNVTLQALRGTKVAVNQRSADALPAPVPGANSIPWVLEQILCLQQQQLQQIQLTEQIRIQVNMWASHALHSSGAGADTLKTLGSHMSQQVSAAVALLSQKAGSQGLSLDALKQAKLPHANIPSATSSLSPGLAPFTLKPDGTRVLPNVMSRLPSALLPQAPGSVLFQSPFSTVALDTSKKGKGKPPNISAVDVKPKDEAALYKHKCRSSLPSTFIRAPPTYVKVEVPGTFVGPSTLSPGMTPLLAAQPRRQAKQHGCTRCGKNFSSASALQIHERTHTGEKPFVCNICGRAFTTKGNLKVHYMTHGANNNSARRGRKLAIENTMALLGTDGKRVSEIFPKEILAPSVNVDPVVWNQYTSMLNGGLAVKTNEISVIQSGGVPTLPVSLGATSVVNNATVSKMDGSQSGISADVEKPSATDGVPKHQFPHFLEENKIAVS
Strand	E-score
CAGTCCTA	0.00403
ACAGGAAC	0.0428
ACCTCTCC	-0.105
AATCGTGT	0.115
GATATAGC	0.242
TGTCAGAA	0.161
AGAGATGA	0.0501
CCCATCGA	-0.0779

Series 2
Target: Histone acetyltransferase KAT6A, winged helix 1, GST fusion (KAT6A, Homo sapiens, UniProt Q92794, residues 1-85)
Technique: protein binding microarray
Molecule type: double-stranded DNA, one strand shown
Sample: in vitro
Concentration: not given
Notes: 8-mer, flanks averaged, mean of 2 arrays, mostly near background
Relative to: not given
Reading: higher = stronger binding
Construct (chain): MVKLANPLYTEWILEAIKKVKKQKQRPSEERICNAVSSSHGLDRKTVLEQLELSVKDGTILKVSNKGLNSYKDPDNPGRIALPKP
Strand	E-score
AAGTATGT	-0.208
ATCTTCTA	-0.0677
TCACACCA	-0.238
CGGAATAA	0.117
CAGGCGAG	-0.194
CATGCACC	0.0561
AGAGAATG	-0.102
AGGTGTCG	0.105

Series 3
Target: CCND2, cyclin fold, Cln2 fusion (human)
Technique: yeast growth competition, sequencing
Sample: yeast
Notes: strong parent motif
Relative to: not given
Reading: higher = stronger binding
Starting sequence: PKN2 docking peptide (human); VSAVRKLDFSDTM
Variant	normalised enrichment score
V4K	3.16
L7I	3.3
K6Y	1.87

Mixed results
Molecule	target	test	system	setting	how to read	measurement	result
PhoQ, residues 284 288 289 292 302 303 SACGEM	PhoP, residues 12 14 15 18 19 LHHVQ (Escherichia coli, UniProt P23836)	Sort-seq, refers to: YFP reporter	E. coli	PhoQ-PhoP variant library, added: 10 µM Mg2+	relative to: high Mg2+ state, higher = stronger signaling	fold induction	31.6

For quick reference, copied from above (series 3):
Variant	normalised enrichment score
K6Y	1.87
L7I	3.3
V4K	3.16
